{"data": "Measured values of several laboratories", "B1": "bicyclic; chain AATCHCRRSCYSTEYSYGTCTVMGINHRFCCL (also: bicyclic or more (positions not given here))", "note": "Each line is one published result; not all experiments were run side by side. ± gives the spread as reported. No end group written: not given here."}
{"Substance": "PMESGICTIV", "target or system": "human MAGI1-2/6 PDZ construct (MBP fusion)", "test": "automated holdup", "test system": "peptide, crude extract", "setting": "concentration not given, corrected by standard peak, unit not given", "how to read": "reference: biotin control resin, higher = stronger binding", "quantity": "binding intensity", "value": -0.0679}
{"Substance": "coproporphyrin III", "test system": "healthy human volunteers, urine", "setting": "dose not given, 0-24 h, median, cumulative urine, together with: ezetimibe plus rifampin", "quantity": "urine concentration", "value": "50.9 nM"}
{"Substance": "ACTCACTCACTC (dsDNA)", "target or system": "Fibroin-modulator-binding protein-1 99-193 (Bombyx mori, UniProt Q5FBS0)", "test": "ITC", "test system": "double-stranded DNA, one strand shown", "quantity": "Kd", "value": "2.3 ± 0.286 µM"}
{"Substance": "FNA / CGLSGLGVA-NH2 ([18F]FNA-labelled, C-amide)", "test": "ex vivo gamma counting", "test system": "peptide, healthy mouse, spleen", "setting": "60 min post injection", "quantity": "tissue uptake", "value": "0.28 %ID/g"}
{"Substance": "caspofungin", "test system": "adult ICU patients, mITT, serum", "setting": "dose not given, day 14", "quantity": "albumin", "value": "25.9 g/L"}
{"Substance": "Rilpivirine docusate", "test system": "water", "quantity": "equilibrium solubility", "value": "0.13 ± 0.1 µg/mL"}
{"Substance": "KTKEGVVHGVATVA", "test": "far-UV circular dichroism, refers to: Turns", "test system": "peptide, PBS", "setting": "10 µM, pH 7.4, 25 °C", "quantity": "secondary structure content", "value": "24.3%"}
{"Substance": "regorafenib N-β-glucuronide", "test system": "Oatp1b2 knockout mice, plasma", "setting": "oral, 10 mg/kg regorafenib single dose", "quantity": "Tmax", "value": "2.1 ± 0.82 h"}
{"Substance": "VQLIMQLM", "target or system": "HLA class I histocompatibility antigen, A alpha chain, allele A*24:02 (Homo sapiens, UniProt P04439)", "test": "conformational ELISA", "test system": "peptide", "setting": "concentration not given", "how to read": "reference: positive control peptide, direction not given", "quantity": "binding score", "value": "21.6%"}
{"Substance": "B1", "test": "sedimentation velocity AUC", "test system": "10 mM sodium phosphate", "setting": "100 µM, pH 7.4, 20 °C", "quantity": "sedimentation coefficient S20,w", "value": "0.846 S"}
{"Substance": "Teicoplanin", "test system": "QC solution", "setting": "7 days, 2–6 °C, high QC level", "quantity": "recovery", "value": "97.8%"}
{"Substance": "CTOP", "test": "RP-HPLC", "test system": "HALO RP-amide column", "setting": "25 µM, acetic acid/methanol, 25 min gradient", "quantity": "retention time", "value": "11.9 min"}
{"Substance": "GSGAGKETRV", "target or system": "human MAGI1-2/6 PDZ construct (MBP fusion)", "test": "automated holdup", "test system": "peptide, purified PDZ protein", "setting": "concentration not given, unit not given", "how to read": "reference: biotin control resin, higher = stronger binding", "quantity": "binding intensity", "value": 0.246}
{"Substance": "Polymyxin B", "test": "untargeted LC-MS metabolomics, refers to: L-valine", "test system": "Sprague-Dawley rat, right cerebral cortex", "setting": "intracerebroventricular, 0.75 mg/kg, 1 h", "how to read": "reference: NaCl control", "quantity": "log2 fold change", "value": -6.7}
{"note": "Excerpt of the above:"}
{"Substance": "coproporphyrin III", "test system": "healthy human volunteers, urine", "setting": "dose not given, 0-24 h, median, cumulative urine, together with: ezetimibe plus rifampin", "quantity": "urine concentration", "value": "50.9 nM"}
{"Substance": "Teicoplanin", "test system": "QC solution", "setting": "7 days, 2–6 °C, high QC level", "quantity": "recovery", "value": "97.8%"}
